Measurements from different studies.
Each line is one published result; not all experiments were run side by side. ± gives the spread as reported.

| SMILES | test | system | conditions | scale | measurement | value |
| --- | --- | --- | --- | --- | --- | --- |
| NC1(C(=O)N[C@@H](CCO)c2ccc(Cl)cc2)CCN(c2nc[nH]c3nccc2-3)CC1 |  | metastatic CRPC patients | 320 mg b.i.d., any grade, treatment-related, with: enzalutamide 160 mg daily |  | incidence of Dysgeusia | 0% |
| Clc1cc(Cl)cc([C@@H]2COC[C@H](C3CCCC3)N2)c1 | shake-flask, 1-octanol/buffer |  | pH 7.4 |  | logD | > 4.7 |
| N#Cc1ccc2c(c1)[C@H]1CCCN(C(=O)c3ccc4[nH]cnc4c3)[C@H]1C2 |  | human females | 40 mg, day 15 |  | total testosterone level | 1.2 nmol/L |
| O=C(O)CN1CCCN2CCN(Cc3ccccc3)CCCN(CC1)Cc1cccc(n1)C2 |  | 64Cu complex | 2 h, pH 7.4, 37 °C, with: DOTA excess |  | intact complex | 99% |
| CN(CCC(=O)O)C(=O)c1ccc2c(c1)CC[C@@H]1[C@@H]2CC[C@]2(C)C(c3cncc(F)c3)=CC[C@@H]12 |  | premenopausal women, endometriosis pain, serum | 60 mg twice daily, visit 4, median | relative to: baseline | direct bilirubin change | 0.2 mg/dL |
| Cc1cc(-c2nccc3c2ccn3CC(=O)Nc2ccc(-c3cnccn3)cn2)ccn1 |  | human | 5 mg once daily, multiple ascending dose |  | general or administration site disorders | 37.5% |
| CC(C)(C)c1ccc([C@H]2COC[C@@H](c3ccc(C#N)cc3)N2)cc1 | shake-flask, 1-octanol/buffer |  | pH 7.4 |  | logD | > 4.7 |
| CC(C)(C)c1ccc(O)c(CN(Cc2cc(C(C)(C)C)ccc2O)C2CCC(NC(N)=O)CC2)c1 (stereo not drawn) |  | mouse brain | 2000 ng/g, time not given, freeze-thaw, 3 cycles, -20 °C |  | recovery | 92.68 ± 0.56% |
| CN1C[C@H](COc2nccc3c(NCc4ccco4)cc(Cl)nc23)OC1=O |  | rabbit NZW female, isolated Langendorff heart | 10 µM, 15 min |  | QT interval | 196 ms |
| Cc1cc(C)c(CNC(=O)c2cc(Cl)c3c(c2C)O[C@@](C)([C@H]2CC[C@H](N(C)C)CC2)O3)c(=O)[nH]1 | CTCAE v4.0 | human, relapsed/refractory NHL | oral, 200 mg once daily, overall, onset after cycle 1 day 1 |  | grade ≥3 TEAE patients | 66.7% |
| O=C(Nc1nc2cccc(-c3ccc(CN4CCS(=O)(=O)CC4)cc3)n2n1)C1CC1 | measured: hypercholesterolaemia | human rheumatoid arthritis patients | oral, 300 mg once daily, 4 weeks, regardless of relatedness |  | treatment-emergent adverse events | 0% |
| O=C(Nc1ccc(Cl)cc1)Nc1ccc(Cl)c(Cl)c1 | reverse phase LC, C18 | acetonitrile gradient, 0.1% formic acid | converted from retention time | relative to: Valko CHI standards | chromatographic hydrophobicity index | 122 |
| CC[C@H](C)CCCCC(=O)N[C@@H](CCN)C(=O)N[C@H](C(=O)N[C@@H](CCN)C(=O)N[C@H]1CCNC(=O)[C@H]([C@@H](C)O)NC(=O)[C@H](CCN)NC(=O)[C@H](CCN)NC(=O)[C@H](CC(C)C)NC(=O)[C@@H](Cc2ccccc2)NC(=O)[C@H](CCN)NC1=O)[C@@H](C)O |  | mild renal insufficiency patients, urine | IV, 0.75 mg/kg, 0-24 h, arithmetic mean |  | cumulative urinary excretion | 0.643 mg |
| CCN1/C(=C/C(C)=O)Sc2ccc(F)cc21 |  | cynomolgus monkey | oral, 100 mg/kg, 2 h post-dose |  | diastolic blood pressure | 74 ± 3 mmHg |
| C[C@@H](c1ncncc1F)[C@](O)(Cn1cncn1)c1ccc(F)cc1F |  | human | oral, 200 mg, drug interaction trial |  | grade 1 TEAE | 9.1% |
| Cc1nc2ccc(OCc3ccc(C(F)(F)F)cc3)cc2[nH]1 |  | Balb/c mouse, male, heart | oral, 10 mg/kg, 4 h |  | tissue concentration | 2000 ± 262 ng/g |
| NC(=O)c1ccc(NCCCN2CCOCC2)c([N+](=O)[O-])c1 |  | octanol/buffer | pH 7.4 |  | logD | 0.85 |
| COCCOc1cnc2ccn([C@H](C)c3nnc4c(F)cc(-c5cnn(C)c5)cn34)c(=O)c2c1 |  | patients, plasma | oral, 200 mg once daily, day 28 24 h postdose |  | Ctrough | 370 ng/mL |
| CC(C)c1nc(N(C)S(C)(=O)=O)nc(-c2ccc(F)cc2)c1/C=C/[C@@H](O)C[C@@H](O)CC(=O)O |  | cynomolgus monkey, suspended hepatocytes |  | unbound, scaled in vitro | passive intrinsic clearance | 2.4 mL/min/kg |
| CC(=O)Nc1cccc(-c2nnc(SCC(=O)Nc3ccc(C(C)=O)cc3)n2C)c1 |  | octanol/buffer | pH 7.4 |  | logD | 1.84 |
| O=C1CC[C@H](N2Cc3cc(N4CCN(CC5CCN(c6ccc([C@@H]7c8ccc(O)cc8CC[C@@H]7c7ccccc7)cc6)CC5)CC4)ccc3C2=O)C(=O)N1 |  | human | oral, 200 mg, with: dabigatran etexilate 75 mg |  | participants with TEAE haematoma | 0% |
| Cc1ccc(C(=O)N(CCCN)C(c2nc3snc(C)c3c(=O)n2Cc2ccccc2)C(C)C)cc1 (stereo not drawn) | measured: Fatigue | human patients | intravenous, dose not given, CTCAE grade ≥3, all doses |  | patients with adverse events | 5% |
| CCn1c(=O)c(-c2cc(NC(=O)Nc3ccccc3)c(F)cc2Br)cc2cnc(NC)cc21 |  | human plasma | 150 ng/mL, -20 °C, 3 cycles, low QC |  | freeze-thaw stability accuracy | 12.3% |
| CCOc1c([C@H](C)n2nc(C)c3c(N)ncnc32)cc(Cl)c(F)c1[C@@H]1CNC(=O)C1 | measured: 450 < QTcF ≤ 480 ms | previously treated B-cell malignancy | oral, 5 mg once daily, baseline QTcF ≤450 ms |  | share of patients | 0% |
| COc1ccc2c(c1)CN(C(=O)CCN1CCC(Cc3ccccc3)CC1)CC[S@@+]2[O-] | telemetry | conscious male beagle dogs | intravenous, 2 mg/kg, 1 h |  | QT interval | 218 ± 13 ms |
| C=CCn1c(=O)c2cnc(Nc3ccc(N4CCN(C)CC4)cc3)nc2n1-c1ccc2c(n1)[C@@](O)(CC)CC2 |  | female NOD/SCID mouse OVCAR-3 xenograft, plasma | oral, 90 mg/kg once daily, :3 |  | AUC(0-24) | 36900 ng·h/mL |
| CCC(C)n1ncn(-c2ccc(N3CCN(c4ccc(OCC5COC(Cn6cncn6)(c6ccc(Cl)cc6Cl)O5)cc4)CC3)cc2)c1=O (stereo not drawn) | measured: renal and urinary disorders | healthy human participants | oral, 200 mg, compound alone cohort |  | adverse event incidence | 27% |

| SMILES | test | system | conditions | scale | measurement | value |
| --- | --- | --- | --- | --- | --- | --- |
| CNC(=O)c1ccc(-c2nn3c(Cc4ccc5ncccc5c4)cnc3[nH]c2=O)cc1F |  | human plasma | stored at -70 °C |  | freeze-thaw stability | 5 cycles |
| CC[C@@H]1CN(C(=O)NCC(F)(F)F)C[C@@H]1c1cnc2cnc3[nH]ccc3n12 | population PK modelling | human | oral, immediate-release formulation, outliers excluded |  | absorption rate constant (Ka) | 2.77 h⁻¹ |
| COc1ccc(NC(=O)N2CCCCN3[C@H](COCCC(=O)O)[C@H](c4ccc(C#Cc5ccccc5)cc4)[C@@H]3C2)cc1 |  | CD-1 mouse | oral, dose not given |  | oral bioavailability | 63% |
| CCOC(=O)N1C[C@@H](c2ccc(Cl)cc2)N[C@@H](c2cccc(Br)c2)C1 | shake-flask, 1-octanol/buffer |  | pH 7.4 |  | logD | > 4.7 |
| COc1cc(C(=O)N2CCC3(CC2)CC(=O)c2c(cnn2C(C)C)C3)cc(-c2ccc(C(=O)O)cc2)n1 | direct measurement | human, fasting serum | 40 mg once daily, day 13, adjusted geometric mean | relative to: placebo | LDL cholesterol change from baseline | 5.9% |
| C/C=C/C[C@@H](C)C(=O)[C@H]1C(=O)N[C@@H](C(C)C)C(=O)N(C)CC(=O)N(C)[C@@H](CC(C)C)C(=O)N[C@@H](C(C)C)C(=O)N(C)[C@@H](CC(C)C)C(=O)N[C@@H](C)C(=O)N[C@H](C)C(=O)N(C)[C@@H](CC(C)C)C(=O)N(C)[C@@H](CC(C)C)C(=O)N(C)[C@@H](C(C)C)C(=O)N1C |  | Sprague Dawley rat, plasma | intravenous infusion, 0.89 mg/h/kg, 4 h, 4.5 h constant infusion |  | free plasma concentration | 431 ng/mL |
| Cc1cc(/C=C/C#N)cc(C)c1Nc1ccnc(Nc2ccc(C#N)cc2)n1 |  | human, normal renal function, plasma | oral, dose not given, 24 h, steady state, fixed-dose combination |  | Ctau | 80 ng/mL |
| [O]=[Co].[O]=[Co][O][Co]=[O] |  | rat, male, urine, 24-h collection | oral gavage, single, 300 mg/kg (220 mg Co/kg), day 2, vehicle 0.5% HPMC |  | creatinine-corrected cobalt concentration | 0.08 µg/µmol creatinine |
| CC1(C)OC[C@@H](c2ccc3ccccc3c2)N[C@@H]1c1ccccc1 | shake-flask, 1-octanol/buffer |  | pH 7.4 |  | logD | > 4.7 |
| Cn1cc(-c2cn3nccc3c(-c3cnn([C@]4(CC#N)C[C@@H](C#N)C4)c3)n2)cn1 |  | healthy humans fed, plasma | oral, 30 mg once daily, day 10, geometric mean |  | peak to trough ratio | 13.6 |
| C=CC(=O)NC1CCN(c2ncc3ncnc(Nc4ccc(Oc5ccc6c(c5)ncn6C)c(C)c4)c3n2)CC1 |  | healthy male volunteers | intravenous then oral, dose not given, 1 week, oral 2 h after infusion |  | subjects discontinuing due to adverse events | 0% |
| O=[N+]([O-])c1cc2c3ccccc3ccc2c2ccccc12 | measured: adenoma mammary tumours | female Sprague-Dawley rats | intramammary, 12.3 µmol per rat, up to 32 weeks |  | tumours per rat | 0.17 ± 0.65 |
| CCCC(=O)Nc1cc(C2CC2)[nH]n1 |  | octanol/buffer | 67 µM, pH 7.4 |  | logD | 1.75 |
| Cc1ccc([C@@H]2O[C@H](CO)[C@@H](O)[C@H](O)[C@H]2O)cc1Cc1ccc(-c2ccc(F)cc2)s1 |  | Japanese type 2 diabetes patients | 400 mg, day 3, 24 h urine collection | relative to: baseline | urinary sodium excretion change | 16.2 mEq |
| NC[C@H](NC(=O)c1ccc(C#CC#Cc2ccccc2)cc1)C(=O)NO |  | octanol/buffer | pH 7.4 |  | logD | > 4.5 |
| Cc1ccc(C)c(OCCCC(C)(C)C(=O)O)c1 |  | human, plasma | oral, dose not given, day 11 predose, median |  | trough plasma concentration | 1490 ng/mL |
| C[C@@H](NC(=O)N1C(=O)[C@H](Cc2ccnc(N)c2)[C@H]1C(=O)O)C1CCCCC1 | UPLC-MS/MS | healthy adult Chinese volunteers, plasma | continuous intravenous infusion, 0.3 mg/kg/h, day 6 of 5-day infusion, mean |  | CL | 4.98 mL/min/kg |
| COc1ncc(-c2nc3c(n2C(C)C)[C@H](c2ccc(Cl)cc2)N(c2cc(Cl)cn(C)c2=O)C3=O)c(OC)n1 | LC-MS/MS | human, plasma | oral, 30 mg, cycle 1 day 14, low-dose arm |  | AUC(0-last) | 961 ng·h/mL |
| Cc1cc(Nc2cc3ncccc3c(N[C@@H]3C[C@H]4CC[C@@H](C3)N4CCC#N)n2)n[nH]1 |  | healthy human subjects | oral, 30 mg, 2 weeks, single ascending dose |  | skin subcutaneous disorders incidence | 0% |
| CC(C)(C(=O)N1CCOc2c(C#N)cncc2C1)C(F)F | measured: Ecchymosis | human | oral, 20 mg once daily, 14 days, multiple ascending dose |  | subjects with adverse event | 0% |
| C=CC(=O)NC1CCN(c2ncc3ncnc(Nc4ccc(Oc5ccc6c(c5)ncn6C)c(C)c4)c3n2)CC1 |  | human, male, plasma | oral, 240 mg, adjusted geometric means | relative to: fed over fasted | AUC0-∞ ratio | 126% |
| CC(C)(F)C[C@H](N[C@@H](c1ccc(-c2ccc(S(C)(=O)=O)cc2)cc1)C(F)(F)F)C(=O)NC1(C#N)CC1 |  | PBS | 100 µM, 23 h, pH 8, 37 °C, with: cysteine 10 mM |  | cysteine adduct formation | 48% |
| CC(C)(C)c1ccc([C@@H]2COC[C@@H](c3ccc(Cl)cc3)N2)cc1 | shake-flask, 1-octanol/buffer |  | pH 7.4 |  | logD | > 4.5 |
| c1ccc2cc3ccccc3cc2c1 |  | fresh water | 12 (unit not given), 20 °C, S30-2 sampler, 30 µm |  | log K(PDMS-water) | 3.91 |
| CCc1cc(C(=O)NC)c2nccc(N3CCc4c(cc(Cn5ccnc5)cc4-c4cn(C)nc4C(F)(F)F)C3=O)c2c1 |  | Sprague Dawley rats | oral, 100 mg/kg twice daily, 7 days |  | reticulocytes | 3.53 ± 0.57% |
| C=CC(=O)NC1CCN(c2ncc3ncnc(Nc4ccc(Oc5ccc6c(c5)ncn6C)c(C)c4)c3n2)CC1 | measured: conjunctival haemorrhage | human male | oral, dose not given, CTCAE on-treatment AEs |  | adverse events incidence | 0% |
| O=C(COc1ccc(Cl)cc1)NC12CC(c3nnc([C@H]4C[C@@H](OC(F)(F)F)C4)o3)(C1)C2 |  | humans | concentration not given |  | procedural pain | 5.3% |
